Measured values gathered from unrelated publications.
± marks the error that the study gave. Converted amounts (≈) assume the structure as drawn.
OPRK1: Kappa-type opioid receptor (OPRK1, Homo sapiens, UniProt P41145)
UniProt P41145, sequence (whole entry, looked up): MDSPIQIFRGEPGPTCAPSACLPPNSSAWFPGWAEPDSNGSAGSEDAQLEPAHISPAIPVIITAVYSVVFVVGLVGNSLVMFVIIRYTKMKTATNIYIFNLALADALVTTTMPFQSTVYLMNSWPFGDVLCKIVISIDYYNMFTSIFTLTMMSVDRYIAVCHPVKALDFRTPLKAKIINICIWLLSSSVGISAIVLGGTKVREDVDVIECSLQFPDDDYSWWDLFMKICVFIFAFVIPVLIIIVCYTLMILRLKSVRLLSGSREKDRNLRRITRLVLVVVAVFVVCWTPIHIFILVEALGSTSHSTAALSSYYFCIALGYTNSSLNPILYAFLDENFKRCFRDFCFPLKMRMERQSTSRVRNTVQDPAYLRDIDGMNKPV

Compound	target or system	assay	test system	setting	quantity	result
CCCCCCCCCCCCCCCC(=O)N[C@@H](CCC(=O)NCCOCCOCCC(=O)NCCOCCOCCC(=O)NCCCC[C@H](NC(=O)[C@H](CC(=O)O)NC(=O)[C@H](CC(C)C)NC(=O)[C@H](Cc1ccc(O)cc1)NC(=O)[C@H](CCCCN)NC(=O)[C@H](CO)NC(=O)[C@H](Cc1ccc(O)cc1)NC(=O)[C@H](CC(=O)O)NC(=O)[C@H](CO)NC(=O)[C@@H](NC(=O)[C@H](Cc1ccccc1)NC(=O)[C@@H](NC(=O)CNC(=O)[C@H](CCC(N)=O)NC(=O)[C@@H](CO)NC(=O)[C@@H](N)Cc1c[nH]cn1)[C@@H](C)O)[C@@H](C)O)C(=O)N[C@@H](CCCNC(=N)N)C(=O)N[C@@H](CCCNC(=N)N)C(=O)N[C@@H](C)C(=O)N[C@@H](CCC(N)=O)C(=O)N[C@@H](CC(=O)O)C(=O)N[C@@H](Cc1ccccc1)C(=O)N[C@H](C(=O)N[C@@H](CCC(N)=O)C(=O)N[C@@H](Cc1c[nH]c2ccccc12)C(=O)N[C@@H](CC(C)C)C(=O)N[C@@H](CCSC)C(=O)N[C@@H](CC(N)=O)C(=O)N[C@H](C(=O)NCC(=O)NCC(=O)N1CCC[C@H]1C(=O)N[C@@H](CO)C(=O)N[C@@H](CO)C(=O)NCC(=O)N[C@@H](C)C(=O)N1CCC[C@H]1C(=O)N1CCC[C@H]1C(=O)N1CCC[C@H]1C(=O)N[C@@H](CO)C(N)=O)[C@@H](C)O)C(C)C)C(=O)O	LX-2	agonist, Western blot		200 µM, 48 h	α-SMA protein level	decreased
CC(C)C[C@H](NC(=O)[C@H](CO[C@@H]1O[C@H](CO)[C@@H](O[C@@H]2O[C@H](CO)[C@H](O)[C@H](O)[C@H]2O)[C@H](O)[C@H]1O)NC(=O)[C@H](CCCCN)NC(=O)[C@H](CC(C)C)NC(=O)[C@H](C)NC(=O)[C@H](CCCCN)NC(=O)[C@H](CCC(=O)O)NC(=O)C(C)(C)NC(=O)[C@H](CC(C)C)NC(=O)[C@H](CC(N)=O)NC(=O)[C@@H]1CCCN1C(=O)[C@H](CC(C)C)NC(=O)[C@H](Cc1ccccc1)NC(=O)CNC(=O)[C@H](NC(=O)[C@@H](N)Cc1ccc(O)cc1)[C@H](C)O)C(N)=O	OPRK1	ligand displacement, radioligand		pH 7.5, cell membranes	Ki	17 nM
CC[C@H](C)[C@H](NC(=O)CNC(=O)[C@@H](NC(=O)[C@H](CCCNC(=N)N)NC(=O)[C@H](CO)NC(=O)[C@H](Cc1c[nH]cn1)NC(=O)[C@H](CCCNC(=N)N)NC(=O)[C@H](CS)NC(=O)CNC(=O)[C@@H](NC(=O)[C@H](CCCNC(=N)N)NC(=O)[C@H](Cc1ccccc1)NC(=O)[C@H](Cc1c[nH]cn1)NC(=O)[C@@H](NC(=O)[C@H](Cc1ccccc1)NC(=O)[C@H](CC(C)C)NC(=O)[C@H](CC(C)C)NC(=O)[C@H](CCC(N)=O)NC(=O)[C@H](CCC(N)=O)NC(=O)[C@H](CC(C)C)NC(=O)[C@@H](NC(=O)[C@H](CCCNC(=N)N)NC(=O)[C@@H](NC(=O)[C@H](CC(C)C)NC(=O)[C@H](C)NC(=O)[C@H](CCC(=O)O)NC(=O)[C@@H](NC(=O)CNC(=O)[C@@H](NC(=O)[C@H](Cc1c[nH]c2ccccc12)NC(=O)[C@@H](NC(=O)[C@@H](N)CC(=O)O)[C@@H](C)O)[C@@H](C)O)C(C)C)[C@@H](C)CC)[C@@H](C)CC)[C@@H](C)CC)[C@@H](C)CC)[C@@H](C)CC)C(=O)N[C@H](C(=O)N[C@@H](CCC(N)=O)C(=O)N[C@@H](CCC(N)=O)C(=O)N[C@@H](CCCNC(=N)N)C(=O)N[C@@H](CCCNC(=N)N)C(=O)N[C@H](C(=O)N[C@@H](CCCNC(=N)N)C(=O)N[C@@H](CC(N)=O)C(=O)NCC(=O)N[C@@H](C)C(=O)N[C@@H](CO)C(=O)N[C@@H](CCCCN)C(=O)N[C@@H](CO)C(=O)O)[C@@H](C)O)[C@@H](C)CC		JC-1 flow cytometry	purified mouse mitochondria	1 µM, 10 min	low membrane potential mitochondria	65%
CCCCCCCCCCCCCCCC(=O)N[C@@H](CCC(=O)NCCCC[C@H](NC(=O)[C@H](CC(=O)O)NC(=O)[C@H](CO)NC(=O)[C@@H](NC(=O)[C@H](Cc1ccccc1)NC(=O)[C@@H](NC(=O)CNC(=O)[C@H](CCC(N)=O)NC(=O)[C@H](C)NC(=O)[C@@H](Cc1ccc(O)cc1)NC(C)=O)[C@@H](C)O)[C@@H](C)O)C(=O)N[C@@H](CO)C(=O)N[C@@H](CCCCN)C(=O)N[C@@H](Cc1ccc(O)cc1)C(=O)N[C@@H](CC(C)C)C(=O)N[C@@H](CC(=O)O)C(=O)N[C@@H](CCC(=O)O)C(=O)N[C@@H](CCCNC(=N)N)C(=O)N[C@@H](C)C(=O)N[C@@H](C)C(=O)N[C@@H](CCC(N)=O)C(=O)N[C@@H](CC(=O)O)C(=O)N[C@@H](Cc1ccccc1)C(=O)N[C@H](C(=O)N[C@@H](CCC(N)=O)C(=O)N[C@@H](Cc1c[nH]c2ccccc12)C(=O)N[C@@H](CC(C)C)C(=O)N[C@@H](CC(C)C)C(=O)N[C@@H](CCC(=O)O)C(=O)NCC(=O)NCC(=O)N1CCC[C@H]1C(=O)N[C@@H](CO)C(=O)N[C@@H](CO)C(=O)NCC(=O)N[C@@H](C)C(=O)N1CCC[C@H]1C(=O)N1CCC[C@H]1C(=O)N1CCC[C@H]1C(=O)N[C@@H](CO)C(N)=O)C(C)C)C(=O)O			male Wistar rat, plasma	intravenous, 0.02 mg/kg	Cmax	312 ng/mL
CCCCCCCCCCCCCCCCCC(=O)N[C@@H](CCC(=O)NCCCC[C@H](NC(=O)[C@H](CCC(N)=O)NC(=O)[C@H](CCCCN)NC(=O)[C@H](CO)NC(=O)[C@H](CC(C)C)NC(=O)[C@H](CC(=O)O)NC(=O)[C@H](CO)NC(=O)[C@@H](NC(=O)[C@H](Cc1ccccc1)NC(=O)[C@@H](NC(=O)CNC(=O)[C@H](CCC(N)=O)NC(=O)[C@@H](CO)NC(=O)[C@@H](N)Cc1c[nH]cn1)[C@@H](C)O)[C@@H](C)O)C(=O)N[C@@H](CC(=O)O)C(=O)N[C@@H](CCC(=O)O)C(=O)N[C@@H](CCC(N)=O)C(=O)N[C@@H](CC(C)C)C(=O)N[C@@H](C)C(=O)N[C@@H](CCCCN)C(=O)N[C@@H](CC(=O)O)C(=O)N[C@@H](Cc1ccccc1)C(=O)N[C@H](C(=O)N[C@@H](CCC(=O)O)C(=O)N[C@@H](Cc1c[nH]c2ccccc12)C(=O)N[C@@H](CC(C)C)C(=O)N[C@@H](CCCCN)C(=O)N[C@@H](C)C(=O)NCC(=O)NCC(=O)N1CCC[C@H]1C(=O)N[C@@H](CO)C(=O)N[C@@H](CO)C(=O)NCC(=O)N[C@@H](C)C(=O)N1CCC[C@H]1C(=O)N1CCC[C@H]1C(=O)N1CCC[C@H]1C(=O)N[C@@H](CO)C(N)=O)[C@@H](C)CC)C(=O)O			cynomolgus monkey, obese diabetic	dose not given, initial decrease after dosing	blood glucose	< 100 mg/dL
CN1CCn2cc(C(=O)NCc3ccc(F)cc3F)c(=O)c(O)c2C1=O	human immunodeficiency virus 1	single-round vector infection	integrase G118R		EC50	19.7 ± 1.8 nM
CC[C@H](C)[C@H](NC(=O)[C@H](Cc1ccccc1)NC(=O)[C@@H](NC(=O)[C@@H](NC(=O)[C@H](CC(C)C)NC(=O)[C@H](CCCCN)NC(=O)[C@@H](N)CCCCN)[C@@H](C)CC)[C@@H](C)O)C(=O)N[C@@H](CC(C)C)C(=O)N[C@@H](CCCNC(=N)N)C(=O)N[C@@H](CCCNC(=N)N)C(=O)N[C@H](C(=O)N[C@@H](CCCNC(=N)N)C(=O)N[C@@H](CCC(=O)O)C(=O)N[C@@H](CCCCN)C(=O)N[C@@H](CCCCN)C(=O)N[C@@H](CCCCN)C(=O)N[C@@H](CCC(=O)O)C(=O)N[C@@H](CS)C(=O)N[C@@H](CC(C)C)C(=O)N[C@H](C(=O)O)C(C)C)[C@@H](C)O	TTX-sensitive sodium channel	resurgent sodium current, open-channel blocker, whole-cell patch clamp	mouse hippocampal CA3 neurons	200 µM intracellular, 22 °C	time to peak	6.1 ± 0.5 ms
CC[C@H](C)[C@H](NC(=O)[C@H](CCCCN)NC(=O)[C@H](CCCCN)NC(=O)[C@H](CC(C)C)NC(=O)[C@H](Cc1c[nH]c2ccccc12)NC(=O)CN)C(=O)NCC(=O)N[C@@H](CCCCN)C(=O)N[C@@H](CCCCN)C(=O)N[C@H](C(=O)N[C@@H](CCC(=O)O)C(=O)N[C@@H](CCCNC(=N)N)C(=O)N[C@H](C(=O)NCC(=O)N[C@@H](CCC(N)=O)C(=O)N[C@@H](Cc1c[nH]cn1)C(=O)N[C@H](C(=O)N[C@@H](CCCNC(=N)N)C(=O)N[C@@H](CC(=O)O)C(=O)N[C@@H](C)C(=O)N[C@H](C(=O)N[C@H](C(=O)N[C@@H](CCC(N)=O)C(=O)N[C@H](C(=O)N[C@H](C(=O)NCC(=O)N[C@H](C(=O)N[C@@H](C)C(=O)N[C@@H](CCC(N)=O)C(=O)N[C@@H](CCC(N)=O)C(=O)N[C@@H](C)C(=O)N[C@@H](C)C(=O)N[C@@H](CC(N)=O)C(=O)N[C@H](C(=O)N[C@@H](C)C(=O)N[C@@H](C)C(=O)N[C@H](C(=O)N[C@@H](CC(C)C)C(=O)N[C@@H](CCCCN)C(N)=O)[C@@H](C)O)C(C)C)C(C)C)[C@@H](C)CC)[C@@H](C)O)[C@@H](C)CC)[C@@H](C)O)[C@@H](C)O)C(C)C)[C@@H](C)CC	E. coli, K. pneumoniae, A. baumannii		CAMHB with 10% human serum		MIC	~0.25 µg/mL (≈ 0.0595 µM)
Cc1cc(/C=C/C#N)cc(C)c1-n1cnc2cnc(Nc3ccc(C#N)cc3)nc21	HIV-1	viral replication, single-round infection	RT mutant M184I		EC50	0.2 ± 0.04 nM
O=[N+]([O-])c1ccc(-n2nc(-c3ccc(F)cc3)cc2-c2ccc(F)cc2)c([N+](=O)[O-])c1	Japanese encephalitis virus	plaque	Neuro2a, SA14-14-2	15 µM, 72 h, co-treatment	viral particle reduction	~82%
CC(C)C[C@H](NC(=O)[C@H](CO)NC(=O)[C@H](CCCCN)NC(=O)[C@H](CC(C)C)NC(=O)C(C)(C)NC(=O)[C@H](CCCCN)NC(=O)[C@H](CCC(=O)O)NC(=O)C(C)(C)NC(=O)[C@H](CC(C)C)NC(=O)[C@H](CC(N)=O)NC(=O)[C@@H]1CCCN1C(=O)[C@H](CC(C)C)NC(=O)[C@H](Cc1ccccc1)NC(=O)CNC(=O)[C@H](NC(=O)[C@@H](N)Cc1ccc(O)cc1)[C@H](C)O)C(N)=O	OPRK1	ligand displacement, radioligand		pH 7.5, cell membranes	Ki	14 nM
Cc1cc(/C=C/C#N)cc(C)c1Nc1nc(Nc2ccc(C#N)cc2)ncc1N	HIV-1	viral replication, single-round infection	RT mutant L234I		EC50	0.2 ± 0.1 nM
CC(C)N1CCn2cc(C(=O)NCc3ccc(F)cc3F)c(=O)c(O)c2C1=O	HIV-1	viral replication, single-round vector infection	IN G140S/Q148R		EC50	11.3 ± 0.7 nM
CC[C@H](C)[C@@H]([C@@H](CC(=O)N1CCC[C@H]1[C@H](OC)[C@@H](C)C(=O)N[C@H](C)[C@@H](O)c1ccccc1)OC)N(C)C(=O)[C@@H](NC(=O)[C@H](C(C)C)N(C)C(=O)OCc1ccc(NC(=O)[C@H](CCCNC(N)=O)NC(=O)[C@@H](NC(=O)Cn2cc(CCC(=O)NCCC(=O)N(C)CC(=O)N(C)CC(=O)N(C)CC(=O)N(C)CC(=O)N(C)CC(=O)N(C)CC(=O)N(C)CC(=O)N(C)CC(=O)N(C)CC(=O)N(C)CC(=O)N[C@@H](C)C(=O)NC3CN(C)Cc4cc5cc(c4)CN(C)CC(C(N)=O)NC(=O)[C@H](C(C)(C)C)NC(=O)[C@H](CC(=O)O)NC(=O)[C@H](Cc4ccc(O)cc4)NC(=O)[C@H](Cc4ccccc4)NC(=O)[C@H](CC(=O)O)NC(=O)[C@H](CCC(=O)O)NC(=O)[C@H](CSC5)NC(=O)[C@@H](C)NC(=O)[C@H](Cc4cccc5ccccc45)NC(=O)[C@H](CCC(=O)O)NC(=O)[C@H](CC(N)=O)NC(=O)[C@@H](C)NC3=O)nn2)C(C)C)cc1)C(C)C (some centres unmarked)			naive CD-1 mouse, plasma	intravenous, 3 mg/kg	plasma half-life	41.4 min

Some of these lines once more:
Compound	target or system	assay	test system	setting	quantity	result
O=[N+]([O-])c1ccc(-n2nc(-c3ccc(F)cc3)cc2-c2ccc(F)cc2)c([N+](=O)[O-])c1	Japanese encephalitis virus	plaque	Neuro2a, SA14-14-2	15 µM, 72 h, co-treatment	viral particle reduction	~82%
CC(C)C[C@H](NC(=O)[C@H](CO)NC(=O)[C@H](CCCCN)NC(=O)[C@H](CC(C)C)NC(=O)C(C)(C)NC(=O)[C@H](CCCCN)NC(=O)[C@H](CCC(=O)O)NC(=O)C(C)(C)NC(=O)[C@H](CC(C)C)NC(=O)[C@H](CC(N)=O)NC(=O)[C@@H]1CCCN1C(=O)[C@H](CC(C)C)NC(=O)[C@H](Cc1ccccc1)NC(=O)CNC(=O)[C@H](NC(=O)[C@@H](N)Cc1ccc(O)cc1)[C@H](C)O)C(N)=O	OPRK1	ligand displacement, radioligand		pH 7.5, cell membranes	Ki	14 nM
